{"data": "Experimental data from different studies", "note": "Every numbered part comes from another study and shows a few of its results, in no order."}
{"data": "Series 1", "target": "Centromere-binding protein 1, full length, His-tagged (CBF1, Saccharomyces cerevisiae, UniProt P17106, residues 1-351)", "technique": "competition protein-binding microarray", "form": "double-stranded DNA, one strand shown", "medium": "in vitro", "tested at": "2 µM", "notes": "whole 60-bp probe, lowest competitor level", "added": "Pho4 competitor, 0.05 µM", "reading": "higher = stronger binding", "shared flanks, not repeated": "… GTCTTGATTCGCTTGACGCTGCTG", "sequence of UniProt P17106 (whole entry, looked up)": "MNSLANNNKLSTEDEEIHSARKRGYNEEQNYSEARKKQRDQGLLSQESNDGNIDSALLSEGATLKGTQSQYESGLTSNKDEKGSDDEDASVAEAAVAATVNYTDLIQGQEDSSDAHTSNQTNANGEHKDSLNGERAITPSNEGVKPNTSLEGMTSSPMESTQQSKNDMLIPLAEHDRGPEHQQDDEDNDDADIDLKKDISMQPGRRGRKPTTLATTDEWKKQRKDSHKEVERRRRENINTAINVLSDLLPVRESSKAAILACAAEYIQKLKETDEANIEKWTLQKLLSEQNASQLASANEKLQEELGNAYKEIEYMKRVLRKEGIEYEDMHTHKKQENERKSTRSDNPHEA"}
{"Strand": "CGGGGTTAAGTTTGTCACATCACTTGCTTGCAGCAG", "fluorescence intensity [a.u.]": 69.5}
{"Strand": "CATACCCAACCTTGAGAAGTGGGTGAAGATATTTGT", "fluorescence intensity [a.u.]": 76}
{"Strand": "TTCTTTGGTCTTGGCCAGAGGTCCCAGAGTCGAAAA", "fluorescence intensity [a.u.]": 54.7}
{"Strand": "CACTACGGAAGAAGCGTCGTGGCCGGATGGAAAGCA", "fluorescence intensity [a.u.]": 71.4}
{"Strand": "CGGGGTTAAGTTTTACACGTGTTTTGCTTGCAGCAG", "fluorescence intensity [a.u.]": 1030}
{"Strand": "GGTTGCGAGAGAAGAGGCGTGTCGGAAAAAAAAACG", "fluorescence intensity [a.u.]": 83.2}
{"data": "Series 2", "target": "Histone acetyltransferase KAT6A, winged helix 1, GST fusion (KAT6A, Homo sapiens, UniProt Q92794, residues 1-85)", "technique": "protein binding microarray", "form": "double-stranded DNA, one strand shown", "medium": "in vitro", "tested at": "not given", "notes": "8-mer, flanks averaged, mean of 2 arrays, mostly near background", "reference": "not given", "reading": "higher = stronger binding", "Construct (chain)": "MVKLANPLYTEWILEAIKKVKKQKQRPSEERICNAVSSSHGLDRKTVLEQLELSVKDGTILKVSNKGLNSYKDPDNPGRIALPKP"}
{"Strand": "ATTCGCTA", "E-score": -0.102}
{"Strand": "ATGAGGTC", "E-score": -0.23}
{"Strand": "AACTAGTC", "E-score": -0.134}
{"Strand": "AGGCGACA", "E-score": 0.0371}
{"Strand": "CGATTACG", "E-score": 0.0471}
{"Strand": "TCACACCA", "E-score": -0.238}
{"Strand": "TGCCAAAA", "E-score": -0.134}
{"data": "Series 3", "target": "Interferon regulatory factor 7, full length, phosphomimetic (IRF7, Homo sapiens, UniProt Q92985, residues 1-503, S471D/S472D/S475D/S476D/S477D/S483D/S484D/S487D)", "technique": "protein-binding microarray", "form": "double-stranded DNA, one strand shown", "medium": "in vitro", "tested at": "2200 nM top", "notes": "60-bp whole probe", "added": "salmon DNA 0.4 mg/ml", "reference": "random background probes", "reading": "higher = stronger binding", "shared flanks, not repeated": "GCCTAGCAC … GTCTTGATTCGCTTGACGCTGCTG", "sequence of UniProt Q92985 (whole entry, unmodified, looked up)": "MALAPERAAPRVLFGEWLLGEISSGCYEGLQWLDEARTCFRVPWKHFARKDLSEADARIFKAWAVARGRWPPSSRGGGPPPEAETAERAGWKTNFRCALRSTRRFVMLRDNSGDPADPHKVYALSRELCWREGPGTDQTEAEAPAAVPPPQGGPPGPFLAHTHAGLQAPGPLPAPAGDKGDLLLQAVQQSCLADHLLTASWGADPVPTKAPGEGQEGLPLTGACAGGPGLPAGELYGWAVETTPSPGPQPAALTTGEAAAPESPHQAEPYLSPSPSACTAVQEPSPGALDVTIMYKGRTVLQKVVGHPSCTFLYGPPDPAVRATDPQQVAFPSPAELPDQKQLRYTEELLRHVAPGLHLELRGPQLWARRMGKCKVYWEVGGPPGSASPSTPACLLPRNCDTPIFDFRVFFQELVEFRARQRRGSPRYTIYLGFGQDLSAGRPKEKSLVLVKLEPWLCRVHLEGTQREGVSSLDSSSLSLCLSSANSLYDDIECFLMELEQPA"}
{"Strand": "TTCGATCTCAGTATCGATTAGTGCTAG", "fitted relative affinity [z-score]": 0.789}
{"Strand": "TCAGTTATCCATCTCAAACTGTGCTAG", "fitted relative affinity [z-score]": 1.18}
{"Strand": "GACGATTTCATACTGGAGACGTGCTAG", "fitted relative affinity [z-score]": 0.661}
{"Strand": "TCATATTTTTTTCCAGAACTGTGCTAG", "fitted relative affinity [z-score]": 0.907}
{"Strand": "TCAAAAGTGTTTCTCAAACTGTGCTAG", "fitted relative affinity [z-score]": -0.346}
{"Strand": "TTCTGAATGCCCTTCCATCACGTGCTA", "fitted relative affinity [z-score]": 1.06}
{"Strand": "GACGATATCGAGACTGGAGACGTGCTA", "fitted relative affinity [z-score]": 0.106}
{"data": "Mixed results"}
{"Molecule": "PhoQ, residues 284 288 289 292 302 303 HSSMNL", "target": "PhoP, residues 12 14 15 18 19 LHHVQ (Escherichia coli, UniProt P23836)", "test": "Sort-seq, item: YFP reporter", "system": "E. coli", "setting": "PhoQ-PhoP variant library, added: 10 µM Mg2+", "how to read": "reference: high Mg2+ state, higher = stronger signaling", "measurement": "fold induction", "result": 17.5}
